Results gathered from unrelated publications.
Every numbered part comes from another study and shows a few of its results, in no order.
Chain of UniProt P78368 (whole entry, looked up): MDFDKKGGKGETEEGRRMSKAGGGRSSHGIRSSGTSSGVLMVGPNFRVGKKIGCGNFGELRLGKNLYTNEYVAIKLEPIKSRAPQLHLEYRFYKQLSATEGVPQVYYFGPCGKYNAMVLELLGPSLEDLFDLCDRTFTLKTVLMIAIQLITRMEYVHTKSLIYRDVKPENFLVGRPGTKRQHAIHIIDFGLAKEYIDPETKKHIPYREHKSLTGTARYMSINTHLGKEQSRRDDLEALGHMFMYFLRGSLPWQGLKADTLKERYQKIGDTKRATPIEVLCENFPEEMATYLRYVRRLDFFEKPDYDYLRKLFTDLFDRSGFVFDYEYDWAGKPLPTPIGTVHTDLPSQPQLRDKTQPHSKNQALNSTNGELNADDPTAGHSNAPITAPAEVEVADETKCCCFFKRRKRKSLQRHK
Chain of UniProt Q9H4B4 (whole entry, looked up): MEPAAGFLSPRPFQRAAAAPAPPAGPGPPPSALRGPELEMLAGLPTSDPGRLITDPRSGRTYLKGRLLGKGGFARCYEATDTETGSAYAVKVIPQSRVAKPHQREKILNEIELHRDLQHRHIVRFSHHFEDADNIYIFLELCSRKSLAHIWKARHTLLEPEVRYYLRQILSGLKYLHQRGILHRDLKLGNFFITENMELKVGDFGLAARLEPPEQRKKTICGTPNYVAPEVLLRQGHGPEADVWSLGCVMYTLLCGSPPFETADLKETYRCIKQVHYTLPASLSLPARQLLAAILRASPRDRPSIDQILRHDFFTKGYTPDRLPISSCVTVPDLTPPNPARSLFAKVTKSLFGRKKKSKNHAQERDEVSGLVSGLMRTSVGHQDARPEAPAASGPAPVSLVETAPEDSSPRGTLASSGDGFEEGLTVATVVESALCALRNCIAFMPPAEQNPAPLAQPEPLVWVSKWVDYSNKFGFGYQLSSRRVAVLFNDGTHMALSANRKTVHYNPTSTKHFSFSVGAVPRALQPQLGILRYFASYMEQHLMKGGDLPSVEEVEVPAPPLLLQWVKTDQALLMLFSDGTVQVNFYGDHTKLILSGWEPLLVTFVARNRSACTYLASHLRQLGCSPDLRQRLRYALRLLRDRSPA
Chain of UniProt P42338 (whole entry, looked up): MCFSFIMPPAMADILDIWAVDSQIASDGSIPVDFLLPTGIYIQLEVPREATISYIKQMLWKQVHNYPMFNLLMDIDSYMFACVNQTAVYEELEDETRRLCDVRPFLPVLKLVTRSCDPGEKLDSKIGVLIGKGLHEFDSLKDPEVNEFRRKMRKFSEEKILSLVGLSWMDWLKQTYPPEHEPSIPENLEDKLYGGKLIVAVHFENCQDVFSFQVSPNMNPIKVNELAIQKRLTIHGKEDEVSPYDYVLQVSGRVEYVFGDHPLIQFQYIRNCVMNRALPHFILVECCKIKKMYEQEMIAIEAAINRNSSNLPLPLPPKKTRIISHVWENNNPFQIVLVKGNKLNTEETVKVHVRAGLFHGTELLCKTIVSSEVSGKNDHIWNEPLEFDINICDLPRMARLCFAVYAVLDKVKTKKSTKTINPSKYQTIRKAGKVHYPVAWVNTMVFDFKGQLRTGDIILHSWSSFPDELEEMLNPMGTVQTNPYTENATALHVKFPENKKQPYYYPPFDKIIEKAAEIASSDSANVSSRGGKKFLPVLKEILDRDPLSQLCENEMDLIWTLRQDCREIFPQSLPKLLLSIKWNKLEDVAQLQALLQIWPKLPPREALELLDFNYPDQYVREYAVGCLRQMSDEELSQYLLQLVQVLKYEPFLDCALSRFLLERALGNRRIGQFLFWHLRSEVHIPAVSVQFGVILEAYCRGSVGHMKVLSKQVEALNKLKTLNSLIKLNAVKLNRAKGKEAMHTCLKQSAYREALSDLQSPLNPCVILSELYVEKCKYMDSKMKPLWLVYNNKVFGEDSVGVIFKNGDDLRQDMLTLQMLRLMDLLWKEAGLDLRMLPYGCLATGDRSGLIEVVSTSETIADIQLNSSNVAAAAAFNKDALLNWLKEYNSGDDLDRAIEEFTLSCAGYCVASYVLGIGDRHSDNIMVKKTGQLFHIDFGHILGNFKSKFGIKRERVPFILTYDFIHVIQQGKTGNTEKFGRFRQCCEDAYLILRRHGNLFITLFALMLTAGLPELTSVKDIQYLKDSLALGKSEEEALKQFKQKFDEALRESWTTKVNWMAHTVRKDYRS
Chain of UniProt Q99683 (whole entry, looked up): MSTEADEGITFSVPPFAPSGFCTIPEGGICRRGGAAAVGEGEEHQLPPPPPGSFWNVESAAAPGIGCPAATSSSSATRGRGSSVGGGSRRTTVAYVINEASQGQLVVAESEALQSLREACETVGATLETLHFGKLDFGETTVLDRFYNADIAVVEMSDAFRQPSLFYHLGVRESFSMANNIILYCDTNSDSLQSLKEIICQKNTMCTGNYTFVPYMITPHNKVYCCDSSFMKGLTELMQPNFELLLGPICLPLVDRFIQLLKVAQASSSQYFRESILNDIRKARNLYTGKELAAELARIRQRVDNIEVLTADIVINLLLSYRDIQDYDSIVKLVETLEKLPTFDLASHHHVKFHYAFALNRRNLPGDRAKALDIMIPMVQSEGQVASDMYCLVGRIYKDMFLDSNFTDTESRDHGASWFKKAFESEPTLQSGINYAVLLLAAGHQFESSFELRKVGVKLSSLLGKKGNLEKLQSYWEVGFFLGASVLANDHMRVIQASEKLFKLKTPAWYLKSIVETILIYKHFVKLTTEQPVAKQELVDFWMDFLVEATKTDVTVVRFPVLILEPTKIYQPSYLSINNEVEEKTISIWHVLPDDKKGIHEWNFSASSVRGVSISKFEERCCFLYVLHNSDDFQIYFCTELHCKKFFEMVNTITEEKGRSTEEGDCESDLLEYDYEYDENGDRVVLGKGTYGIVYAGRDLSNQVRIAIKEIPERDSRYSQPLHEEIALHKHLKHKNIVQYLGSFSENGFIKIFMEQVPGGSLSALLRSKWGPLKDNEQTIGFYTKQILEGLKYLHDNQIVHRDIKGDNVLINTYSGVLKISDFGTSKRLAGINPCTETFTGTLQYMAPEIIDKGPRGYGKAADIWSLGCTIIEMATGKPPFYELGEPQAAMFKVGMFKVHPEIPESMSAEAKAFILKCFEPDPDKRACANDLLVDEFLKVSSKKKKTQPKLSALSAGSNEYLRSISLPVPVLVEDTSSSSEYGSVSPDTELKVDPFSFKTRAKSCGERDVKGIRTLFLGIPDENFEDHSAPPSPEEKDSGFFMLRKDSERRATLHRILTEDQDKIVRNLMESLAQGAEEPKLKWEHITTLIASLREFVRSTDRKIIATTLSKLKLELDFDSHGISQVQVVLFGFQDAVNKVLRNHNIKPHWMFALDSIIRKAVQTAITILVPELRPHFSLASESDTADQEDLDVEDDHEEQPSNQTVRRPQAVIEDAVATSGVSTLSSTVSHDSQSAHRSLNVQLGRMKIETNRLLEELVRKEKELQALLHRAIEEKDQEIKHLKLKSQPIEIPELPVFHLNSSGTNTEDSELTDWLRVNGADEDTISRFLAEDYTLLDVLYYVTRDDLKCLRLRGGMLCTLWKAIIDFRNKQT
Chain of UniProt O15197 (whole entry, looked up): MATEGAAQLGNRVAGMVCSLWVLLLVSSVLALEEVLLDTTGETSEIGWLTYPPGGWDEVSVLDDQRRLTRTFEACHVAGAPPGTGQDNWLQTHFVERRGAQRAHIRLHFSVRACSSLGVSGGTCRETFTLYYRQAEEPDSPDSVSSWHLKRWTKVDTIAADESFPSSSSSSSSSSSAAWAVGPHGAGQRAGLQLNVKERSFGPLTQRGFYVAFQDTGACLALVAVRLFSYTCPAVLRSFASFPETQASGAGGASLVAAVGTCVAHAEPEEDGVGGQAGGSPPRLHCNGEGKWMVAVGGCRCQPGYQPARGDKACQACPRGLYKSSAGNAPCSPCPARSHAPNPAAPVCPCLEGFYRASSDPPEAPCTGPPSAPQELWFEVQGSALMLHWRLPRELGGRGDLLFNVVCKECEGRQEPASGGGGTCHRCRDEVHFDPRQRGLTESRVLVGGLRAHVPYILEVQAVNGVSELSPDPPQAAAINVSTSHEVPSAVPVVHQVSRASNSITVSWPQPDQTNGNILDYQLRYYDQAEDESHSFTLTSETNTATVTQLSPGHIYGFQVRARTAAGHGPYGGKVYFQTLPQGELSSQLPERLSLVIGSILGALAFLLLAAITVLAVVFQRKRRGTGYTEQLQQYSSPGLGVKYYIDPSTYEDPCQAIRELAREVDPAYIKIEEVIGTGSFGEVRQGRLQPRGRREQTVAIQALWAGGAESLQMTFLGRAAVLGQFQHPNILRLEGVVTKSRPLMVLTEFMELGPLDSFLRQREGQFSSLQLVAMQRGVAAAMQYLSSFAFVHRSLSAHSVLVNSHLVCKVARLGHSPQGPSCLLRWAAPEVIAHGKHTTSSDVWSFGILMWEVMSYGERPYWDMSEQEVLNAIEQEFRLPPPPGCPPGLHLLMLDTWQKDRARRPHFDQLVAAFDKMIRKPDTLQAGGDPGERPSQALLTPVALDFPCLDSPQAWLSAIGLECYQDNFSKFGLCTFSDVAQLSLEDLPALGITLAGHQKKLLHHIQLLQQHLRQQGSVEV
Chain of UniProt Q13882 (whole entry, looked up): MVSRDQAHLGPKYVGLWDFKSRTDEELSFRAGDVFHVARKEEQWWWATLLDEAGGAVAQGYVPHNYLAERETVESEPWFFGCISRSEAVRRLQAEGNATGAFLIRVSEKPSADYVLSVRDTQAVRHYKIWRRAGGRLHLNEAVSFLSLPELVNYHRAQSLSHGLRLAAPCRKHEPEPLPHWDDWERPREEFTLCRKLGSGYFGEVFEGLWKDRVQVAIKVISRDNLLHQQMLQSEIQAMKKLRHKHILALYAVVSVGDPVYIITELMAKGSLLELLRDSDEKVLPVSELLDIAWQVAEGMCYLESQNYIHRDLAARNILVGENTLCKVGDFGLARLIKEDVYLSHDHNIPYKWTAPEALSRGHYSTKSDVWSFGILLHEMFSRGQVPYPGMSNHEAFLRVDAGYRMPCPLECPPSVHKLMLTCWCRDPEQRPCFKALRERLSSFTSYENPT

Series 1 — host: human; sample: microsomes or S9; concentration: 2 µM; time: 0.5 h
Compound	remaining compound
Cc1ccc(C(=O)c2[nH]c3ccccc3c2CC(=O)O)cc1	26.2%
OC(CN1CCCC1CC1CCCCC1)Cn1cccn1 (stereo not drawn)	55.2%
CCOC(=O)c1sc(NC(=O)c2cc(OCC)c(OCC)c(OCC)c2)c(C(N)=O)c1C	85%
CC1=CC(=O)/C(=C(/C)Nc2cc(-c3ccccc3)n[nH]2)C(=O)O1	94.6%
CCCC(=O)c1cnc2c(OCC)nccc2c1N[C@H](C)c1ccccc1	43.4%
CCN(CC)C(=O)Cc1c(/C=C/c2ccccc2)[nH]c2ccccc12	4.1%
Cc1ccnn1CCNC(=O)CCc1nc2ncc(Br)cc2[nH]1	71.8%
c1ccc(Nc2ccc(Oc3ncnc4sccc34)cc2)cc1	98.7%
Cc1ccc(Cn2c(=O)c3ccc(C(=O)NC(C)C)cc3n3c(=O)n(C)nc23)cc1	53.4%

Series 2 — concentration: 1 µM
Compound: CC(=O)c1c(NS(C)(=O)=O)c2cc(-c3ccc(Cl)cc3)c(-c3ccc(Cl)cc3Cl)nc2n(C)c1=O
target	test	remaining binding [%]
FLT3 (Homo sapiens, UniProt P36888, R834Q)	cell-free assay, competition with immobilised ligand	100
MAP3K5 (Homo sapiens, UniProt Q99683)	cell-free assay, competition with immobilised ligand	85
PRKACB (Homo sapiens, UniProt P22694)	cell-free assay, competition with immobilised ligand	92
MERTK (Homo sapiens, UniProt Q12866)	cell-free assay, competition with immobilised ligand	100
CDC42BPA (Homo sapiens, UniProt Q5VT25)	cell-free assay, competition with immobilised ligand	95
Tyrosine-protein kinase ABL1, phosphorylated (ABL1, Homo sapiens, UniProt P00519, F317I)	binding	85
GRK2 (Homo sapiens, UniProt P25098)	cell-free assay, competition with immobilised ligand	74
PI4KB (Homo sapiens, UniProt Q9UBF8)	cell-free assay, competition with immobilised ligand	74
PLK3 (Homo sapiens, UniProt Q9H4B4)	cell-free assay, competition with immobilised ligand	89
PIK3CB (Homo sapiens, UniProt P42338)	cell-free assay, competition with immobilised ligand	100
MAP3K7 (Homo sapiens, UniProt O43318)	cell-free assay, competition with immobilised ligand	83
EPHA2 (Homo sapiens, UniProt P29317)	cell-free assay, competition with immobilised ligand	100
BRAF (Homo sapiens, UniProt P15056, V600E)	cell-free assay, competition with immobilised ligand	88
LRRK2 (Homo sapiens, UniProt Q5S007, G2019S)	cell-free assay, competition with immobilised ligand	100
CSNK1G2 (Homo sapiens, UniProt P78368)	cell-free assay, competition with immobilised ligand	100
EPHB6 (Homo sapiens, UniProt O15197)	cell-free assay, competition with immobilised ligand	100
PRKACA (Homo sapiens, UniProt P17612)	cell-free assay, competition with immobilised ligand	100
Tyrosine-protein kinase ABL1, non-phosphorylated (ABL1, Homo sapiens, UniProt P00519, T315I)	cell-free assay, competition with immobilised ligand	86
PTK6 (Homo sapiens, UniProt Q13882)	cell-free assay, competition with immobilised ligand	100

Series 3 — observed: enzyme activity; mode: inhibitor; concentration: 0.5 µM; baseline: control
Target: Serine/threonine-protein kinase VRK1 (VRK1, Homo sapiens, UniProt Q99986)
Construct (Q99986 1-396): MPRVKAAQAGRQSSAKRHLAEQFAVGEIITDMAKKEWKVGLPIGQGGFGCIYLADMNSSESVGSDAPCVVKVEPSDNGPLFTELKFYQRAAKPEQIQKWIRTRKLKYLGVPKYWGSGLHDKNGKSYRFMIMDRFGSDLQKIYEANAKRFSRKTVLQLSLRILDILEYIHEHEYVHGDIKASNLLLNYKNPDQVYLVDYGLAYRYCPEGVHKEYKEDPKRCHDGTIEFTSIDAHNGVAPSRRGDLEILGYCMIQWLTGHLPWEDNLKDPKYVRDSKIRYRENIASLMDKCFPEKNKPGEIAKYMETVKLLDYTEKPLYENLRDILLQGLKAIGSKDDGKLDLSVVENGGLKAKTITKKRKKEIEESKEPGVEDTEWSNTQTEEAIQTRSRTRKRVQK
SMILES	remaining activity [%]
COc1ccc(Cl)cc1NC(=O)Nc1cc(C)nc2ccccc12	84.6
CC(C)[C@H](CO)Nc1nc(Nc2cccc(Cl)c2)c2ncn(C(C)C)c2n1	99.5
CS(=O)(=O)CCNCc1ccc(-c2ccc3ncnc(Nc4ccc(OCc5cccc(F)c5)c(Cl)c4)c3c2)o1	101
O=c1cc(N2CCOCC2)oc2c1ccc1ccccc12	93.3
CCN1/C(=C/C(C)=O)Sc2ccc(OC)cc21	98.2
CC(=O)O/N=C1/C(c2c(O)[nH]c3cc(Br)ccc23)=Nc2ccccc21	80.7
COc1ccc(-c2cnc3c(-c4ccsc4)cnn3c2)cc1	105
O=C(Nc1ccc(Cl)cc1)c1ccccc1NCc1ccncc1	104
Cn1cnc2cc3c(Nc4cccc(Br)c4)ncnc3cc21	100
Cn1cc(/C=C2\C(=O)Nc3ccc(S(N)(=O)=O)cc32)c2ccccc21	103
CCOc1cc2ncnc(Nc3cccc(Br)c3)c2cc1OCC	101
COc1cc2ncnc(Nc3ccc(OCc4ccccc4)cc3)c2cc1OC	89
O=C1NC(=O)/C(=C/c2ccc3nccnc3c2)S1	94.9
Nc1[nH]nc2nnc(-c3c(-c4ccccc4)nn4ccccc34)cc12	92.2
CN(C)CCCn1cc(C2=C(c3c[nH]c4ccccc34)C(=O)NC2=O)c2ccccc21	95.5
Cc1ccc(NC(=O)c2ccc(CN3CCN(C)CC3)cc2)cc1Nc1nccc(-c2cccnc2)n1	96.7
CC(C)c1nn(-c2c(Cl)cccc2Cl)c2nc(Cc3ccc(OCCO)cc3)[nH]c(=O)c12	103
COc1cc2ncnc(N3CCN(C(=O)Nc4ccc(Oc5ccccc5)cc4)CC3)c2cc1OC	77.4
Cc1nc(Nc2ncc(C(=O)Nc3c(C)cccc3Cl)s2)cc(N2CCN(CCO)CC2)n1	97.7
COc1cc2ncc(-c3ccccc3)nc2cc1OC	106
CCC(=O)Nc1ccc2ncnc(Nc3cccc(Br)c3)c2c1	94.4

Further values, each from its own experiment — cell line: Caco-2; concentration: 10 µM; time: 120 min; notes: basolateral to apical
Compound	recovery
C[C@H]1O[C@@H](O[C@H]2[C@@H](O)C[C@H](O[C@H]3[C@@H](O)C[C@H](O[C@H]4CC[C@@]5(C)[C@H](CC[C@@H]6[C@@H]5C[C@@H](O)[C@]5(C)[C@@H](C7=CC(=O)OC7)CC[C@]65O)C4)O[C@@H]3C)O[C@@H]2C)C[C@H](O)[C@@H]1O	94.1%
CC(C)NCC(O)COc1cccc2ccccc12 (stereo not drawn)	98.3%
